Results of several laboratories.
Every numbered part comes from another study and shows a few of its results, in no order. Positions count from the first letter of the parent shown.

Sample 1 — method: EMSA with sequencing; molecule type: double-stranded DNA, one strand shown; matrix: in vitro; concentration: 10 and 20 nM; baseline: negative control set to 0; reading: higher = stronger binding
Target: Hepatocyte nuclear factor 3-alpha (Foxa1, Mus musculus, UniProt P35582, residues 1-468, full length assumed)
Setting: whole designed probe, mean of two concentrations, ends assumed
Residues (chain): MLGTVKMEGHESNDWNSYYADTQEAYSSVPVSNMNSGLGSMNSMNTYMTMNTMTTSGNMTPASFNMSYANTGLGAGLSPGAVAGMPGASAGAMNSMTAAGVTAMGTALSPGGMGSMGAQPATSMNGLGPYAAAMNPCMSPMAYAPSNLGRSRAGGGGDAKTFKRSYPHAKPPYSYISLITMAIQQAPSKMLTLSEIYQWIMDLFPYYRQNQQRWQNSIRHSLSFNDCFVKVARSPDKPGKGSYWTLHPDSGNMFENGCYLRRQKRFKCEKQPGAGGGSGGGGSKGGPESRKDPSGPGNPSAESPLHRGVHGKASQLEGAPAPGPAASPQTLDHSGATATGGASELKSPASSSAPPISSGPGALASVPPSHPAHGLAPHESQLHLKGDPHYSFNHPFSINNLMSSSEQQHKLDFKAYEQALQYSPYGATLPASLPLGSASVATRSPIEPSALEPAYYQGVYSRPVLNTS
For `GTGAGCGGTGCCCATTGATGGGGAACATCTTCCCCCTCTTCCTTGCCCCACCAGCTCACCTTCCCGGGTTATTTGCAGATAGGAAAATAAATAAAGCCGCTGCTCTCACCTATAGTCTTGGCGCAAACTGCTGTTTGCTCTGGATGAATCATGGTCCTTTGGCGACGCCAGGCTCCGGGAGAGCAAAGCACCGTGTCAGGGCCATGATCCGGGGTGGCCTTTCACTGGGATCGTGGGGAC`, “normalised bound fraction” read 0.371 ratio.
`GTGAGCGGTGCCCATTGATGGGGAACTTTTTGTTAACACTTAGATATGCCTTCCCTTCTCAAGGAGGATTATCCTATAAACTTAACCTTTGAATTAAAGATATTTATTGACTAACAATGTAATCTGGAAAAACTTTAAAATCTCAACAGAAATTATTTTCTCTTTAAATACTTTATTACTTTTTATTTTACAGCAACTCACATTTATGGCTTAATATGGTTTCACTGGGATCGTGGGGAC`: “normalised bound fraction” 0.0569 ratio.
For `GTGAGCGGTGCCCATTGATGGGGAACATATCATAATTAATAGGACTTAGTCTCCATTAACCCCCAAAATAACATCAAAATAGTCTCCCAAAAATATAATTGATTTTTATGAGAACTTAATGTAATCTTGCAACAAGAGATCCACTCTCAACCCTTCATGTAAACACATCTGTTGCTAATCATACGTTCAGAATCCCTTGCTTAGAGTATAGGCATAGTCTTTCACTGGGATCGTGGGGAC`, “normalised bound fraction” read 0.0383 ratio.
For `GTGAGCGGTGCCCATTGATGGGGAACGCGACGGCGCCCAATGAGCGGCCAGGATGTTGGAGCGCCGGCGGCGGTCCGGGCGCTCGCTGGCTGAGGGACGGCGGCCGCCGCCATGATGCTAGATTGCTTTCAATGAAAACGAGGGGGGCGCGGAGGAGGAGGCGGCGGCGTCGGTGGCGGCGGCGACGGCGGCGCGGAGGCGAAGGCAGCGGCGGGCGCATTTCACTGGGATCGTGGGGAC`, “normalised bound fraction” read 0.0984 ratio.
For `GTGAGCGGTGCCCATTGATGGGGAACTAAAACCCGGTGACTCTTTTGCACATTTAATTTGAGAACAGGTGAACTAGCTAGATGGATGTTCTCCAGGAAACACTTCTAAGGTGAAAAAGAAGATGACTCACGCTTTCTCCTGATCTGGCCACCAGGTGGCACTGACAAGCTGGGGCGACTTCGTTGTGGGCAGAGGCGGGACAGATAATTAGGCAGCCTTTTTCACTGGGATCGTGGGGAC`, “normalised bound fraction” read -0.0784 ratio.

Sample 2 — method: DHFR PCA, deep sequencing; matrix: yeast; added: (+)-ABA 0 µM; baseline: wild-type fitted maximum; reading: higher = stronger binding
Target: ABI1, truncated, D143A, DHFR fusion (Arabidopsis thaliana)
Setting: methotrexate growth selection, single substitutions
Parent: PYL1, truncated, DHFR fusion (Arabidopsis thaliana); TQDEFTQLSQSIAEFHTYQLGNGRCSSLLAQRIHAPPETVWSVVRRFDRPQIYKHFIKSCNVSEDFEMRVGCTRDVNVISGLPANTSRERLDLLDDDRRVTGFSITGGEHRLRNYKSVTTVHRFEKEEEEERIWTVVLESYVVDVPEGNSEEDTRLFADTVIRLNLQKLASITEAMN
Under “relative binding score”, `G108P` is recorded as -1.27%.
Under “relative binding score”, `F15Y` is recorded as 25.8%.
`L28P`: “relative binding score” -0.507%.
`Y141K`: “relative binding score” -5.03%.
For `A35Q`, “relative binding score” read 0.851%.
`S87Q` — result for “relative binding score”: 58.9%.
`D75A` — result for “relative binding score”: 11.7%.
For `K58P`, “relative binding score” read 0.49%.
`Q167M`: “relative binding score” 19.6%.

Sample 3 — method: aptamer microarray, sandwich; molecule type: DNA with 2'F-ANA; matrix: in vitro; concentration: 200 nM; added: Cy3 exosite-II aptamer, 400 nM; reading: higher = stronger binding; sequence: GGTTGGTGTGGTTGG
Target: Prothrombin, mature alpha-thrombin (F2, Homo sapiens, UniProt P00734)
Setting: whole 15-mer aptamer, many near background
Under “mean fluorescence intensity”, `2'F-ANA at 1 2 6 9 10 11 12 13 14` is recorded as 50.1 a.u.
`2'F-ANA at 2 4 5 6 7 9 14` — result for “mean fluorescence intensity”: 52.1 a.u.
`2'F-ANA at 5 8 9 12 13 15`: “mean fluorescence intensity” 102 a.u.
Under “mean fluorescence intensity”, `2'F-ANA at 1 4 7 8 11 13 14 15` is recorded as 56.6 a.u.
`2'F-ANA at 2 3 4 6 7 10 12 13 14 15` — result for “mean fluorescence intensity”: 149 a.u.
`2'F-ANA at 1 3 7 9 10 11 14`: “mean fluorescence intensity” 82.2 a.u.
`2'F-ANA at 1 2 3 4 6 7 8 10 11 12 13 14 15` — result for “mean fluorescence intensity”: 64.1 a.u.
Under “mean fluorescence intensity”, `2'F-ANA at 1 2 3 4 5 6 10 13` is recorded as 50.9 a.u.
`2'F-ANA at 3 7 9 11 13 14`: “mean fluorescence intensity” 540 a.u.
`2'F-ANA at 2 6 8 10 11 13`: “mean fluorescence intensity” 95 a.u.
Under “mean fluorescence intensity”, `2'F-ANA at 1 4 7 9 11 13 14` is recorded as 51.6 a.u.
`2'F-ANA at 2 4 9 11 12 15`: “mean fluorescence intensity” 455 a.u.
`2'F-ANA at 1 4 5 6 9 10 11 12 14`: “mean fluorescence intensity” 44.6 a.u.
`2'F-ANA at 3 4 6 7 8 9 10 11 12 13 15` — result for “mean fluorescence intensity”: 221 a.u.

Mixed results
`PhoQ, residues 284 288 289 292 302 303 STVVAA` has a fold induction of 1.41 (PhoP, residues 12 14 15 18 19 TPWTL (Escherichia coli, UniProt P23836); Sort-seq, item: YFP reporter; E. coli; PhoQ-PhoP variant library, added: 10 µM Mg2+; baseline: high Mg2+ state, higher = stronger signaling).
